Measurements pooled from the literature.
Each line is one published result; not all experiments were run side by side. Several values in a cell are separate wells, animals, samples, runs or records. ± gives the spread as reported.

| Structure (SMILES) | test | test system | setting | scale | measurement | result |
| --- | --- | --- | --- | --- | --- | --- |
| CCCCOc1nc(N)c2c(n1)N(Cc1cccc(CN3CCCC3)c1)CC(=O)N2 | measured: blurred vision | human | oral, 2 mg | – | drug-related TEAE incidence | 0% |
| COc1ccc2[nH]c([S+]([O-])Cc3ncc(C)c(OC)c3C)nc2c1 (stereo not drawn) | – | healthy Chinese volunteers, plasma | oral, 20 mg, fed, CYP2C19 rapid metabolizers | – | Cmax | 268 ± 198 ng/mL |
| COc1ccc2c3c([nH]c2c1)[C@H](CC(C)C)N1C(=O)[C@H](CC(=O)NC(C)C)NC(=O)[C@@H]1C3 | – | wild-type mouse, male, serum | oral, 100 mg/kg, 8 h | – | serum concentration | 348 nM and 1760 nM and 72 nM and 369 nM |
| O=C(COc1ccc(Cl)cc1)NC12CC(c3nnc([C@H]4C[C@@H](OC(F)(F)F)C4)o3)(C1)C2 | – | human both sexes | oral, 45 mg once daily, 14 days | – | drug-related TEAE participants | 83.3% |
| Cc1ccc([C@@H]2O[C@H](CO)[C@@H](O)[C@H](O)[C@H]2O)cc1Cc1ccc(-c2ccc(F)cc2)s1 | – | Japanese type 2 diabetes patients | 200 mg, day 15, 24 h urine collection | baseline: baseline | urinary sodium excretion change | 9.71 mEq |
| N#Cc1ccc2c(c1)[C@H]1CCCN(C(=O)c3ccc4[nH]cnc4c3)[C@H]1C2 | – | human, plasma | oral, 240 mg, first dose, with: background metformin | – | exposure increase | ~7% |
| CCOc1c([C@H](C)n2nc(C)c3c(N)ncnc32)cc(Cl)c(F)c1[C@@H]1CNC(=O)C1 | measured: QRS >100 to ≤110 ms | previously treated B-cell malignancy | oral, 15 mg once daily, baseline below thresholds | – | ECG observations | 0% |
| FC(F)(F)c1ccc(CNc2ccc(Cc3c[nH]c4ncc(Cl)cc34)cn2)cn1 | measured: Nausea | patients with advanced solid tumours, all cohorts | oral, 1000 mg/day, any grade | – | treatment-related adverse events | 43% |
| O=C(O)/C=C/c1ccccc1 | – | human plasma | median, both sexes | – | plasma concentration | 5510 nM |
| Cc1cccc(CNC(=O)c2cn(CCNC(=O)c3ccccc3S)c3cc4c(cc3c2=O)OC(F)(F)O4)n1 | – | Sprague-Dawley rat, male, whole blood | intravenous, 5 mg/kg of parent compound | – | Tmax | 4.98 min |
| O=C(/C=C/c1ccc(O)c(O)c1)O[C@@H]1C[C@](O)(C(=O)O)C[C@@H](O)[C@H]1O | – | human plasma | median, both sexes | – | plasma concentration | 18.9 nM |
| CCn1cc(C(=O)O)c(=O)c2cc(F)c(N3CCNCC3)cc21 | starch gel membrane permeability | Gram-negative envelope surrogate | 200 µM, 45 min, pH 7.4 | – | amount permeated | 2.81 nmol |
| C[C@@]1(c2cc(NC(=O)c3ccc(C#N)cn3)ccc2F)C=CSC(N)=N1 | – | elderly humans, both sexes, plasma | oral, 150 mg single dose | – | dose-normalised AUC(0-inf) | 96.8 ng·h/mL |
| NCC1CCN(c2nc(-c3ccncc3)nc3sc4c(c23)CCCC4)CC1 | optical coherence tomography | Long-Evans rats | intravitreal, 3 µM, 5 h | baseline: vehicle | retinal structure | no effect |
| CCc1cc2ncc(CN3CCN(c4ccc(C(=O)NC)nc4)CC3)cc2[nH]c1=O | – | male rat, blood | oral, 50 mg/kg/day, 4 weeks | baseline: vehicle control | Neutrophils count ratio | 0.56 |
| CNC(=O)c1ccc(-c2cnc3ncc(Cc4ccc5ncccc5c4)n3n2)cc1F | – | Japanese patients | oral, 400 mg, grade 3/4 | – | Amylase increased dose reduction/interruption | 3% |
| COc1ncc(-c2nc3c(n2C(C)C)[C@H](c2ccc(Cl)cc2)N(c2cc(Cl)cn(C)c2=O)C3=O)c(OC)n1 | LC-MS/MS | human, plasma | oral, 20 mg, cycle 2 day 1, low-dose arm | – | Cmax | 172 ng/mL |
| O=C(O)c1cc(O)cc(O)c1 | – | human plasma | median, both sexes | – | plasma concentration | 992 nM |
| N=C(N)NCCNC(=O)C1(Nc2ccccc2)CCN(Cc2ccccc2)CC1 | – | Sprague-Dawley rats (both sexes), plasma | oral, 50 mg/kg | – | clearance | 1 ± 0.1 L/h |

| Structure (SMILES) | test | test system | setting | scale | measurement | result |
| --- | --- | --- | --- | --- | --- | --- |
| C[C@@H](N)C1CCN(S(=O)(=O)c2cccc3cnccc23)CC1 | measured: Tachycardia | healthy volunteers | 25 mg, fasted | – | TEAE incidence | 0% |
| NC[C@H]1O[C@H](O[C@H]2[C@H](O)[C@@H](O[C@H]3O[C@H](CO)[C@@H](O)[C@H](N)[C@H]3O)[C@H](N)C[C@@H]2N)[C@H](N)C[C@@H]1O | starch gel membrane permeability | Gram-negative envelope surrogate | 200 µM, 30 min, pH 7.4 | – | amount permeated | 0.61 nmol |
| O=C(c1cccnc1-c1ccncc1)N1CCC(O)(Cc2ccccc2)CC1 | – | healthy Japanese adults, plasma | oral, 200 mg twice daily, day 14 | – | AUClast | 860 ng·h/mL |
| O=C(Nc1nc2cccc(-c3ccc(CN4CCS(=O)(=O)CC4)cc3)n2n1)C1CC1 | measured: regurgitation | rheumatoid arthritis patients | oral, 200 mg once daily, 4 weeks, any relatedness | – | treatment-emergent adverse events | 0% |
| N#C[C@@]1(c2ccc3c(N)ncnn23)O[C@H](CO)[C@@H](O)[C@H]1O | plasma protein binding | rat plasma | 10 µM, time not given | – | recovery | 96.5% |
| Cc1c2oc3c(C)ccc(C(=O)N[C@@H]4C(=O)N[C@H](C(C)C)C(=O)N5CCC[C@H]5C(=O)N(C)CC(=O)N(C)[C@@H](C(C)C)C(=O)O[C@@H]4C)c3nc-2c(C(=O)N[C@@H]2C(=O)N[C@H](C(C)C)C(=O)N3CCC[C@H]3C(=O)N(C)CC(=O)N(C)[C@@H](C(C)C)C(=O)O[C@@H]2C)c(N)c1=O | LC-MS | children with cancer, plasma | dose not given, 5 min post dose | – | median plasma concentration | 128 µg/L |
| O=C(O)CCC(=O)O.[2H]C([2H])([2H])Oc1cc(C)c2[nH]ccc2c1CN1CC[C@@H](C2CC2)C[C@H]1c1ccc(C(=O)O)cc1 | – | healthy Chinese subjects | 200 mg once daily, multiple ascending dose | – | subjects with drug-related TEAE | 50% |
| CC(C)(C)CC(C)(C)c1ccc(O)c(-n2nc3ccccc3n2)c1 | – | EpiSkin reconstructed epidermis | concentration not given, 36 h | – | amount in receptor fluid | not detected |
| C[C@@H]1CN(c2c(F)c(N)c3c(=O)c(C(=O)O)cn(C4CC4)c3c2F)C[C@H](C)N1 | starch gel membrane permeability | Gram-negative envelope surrogate | 200 µM, 30 min, pH 7.4 | – | amount permeated | 0.79 nmol |
| Cn1cc(Nc2nc(N)nc(-c3cccc(-n4ccc5cc(C6CC6)cc(F)c5c4=O)c3CO)n2)cn1 | – | healthy humans, fed | oral tablet, 50 mg twice daily (multiple dose), 14 (unit not given) | baseline: subjects | drug-related nausea incidence | 0% |
| C[C@@H](c1nc(-c2ccc(C#N)cc2)cs1)[C@](O)(Cn1cncn1)c1cc(F)ccc1F | headache | human | oral, dose not given, with: ethinyl estradiol/norethindrone | – | subjects with adverse event | 8.7% |
| COc1cc(C=O)ccc1O | – | human plasma | mean, both sexes | – | plasma concentration | 1570 nM |
| CCc1cc(C(=O)NC)c2nccc(N3CCc4c(cc(Cn5ccnc5)cc4-c4cn(C)nc4C(F)(F)F)C3=O)c2c1 | – | Sprague Dawley rat, male, plasma | oral, 100 mg/kg once daily, 7 days, toxicokinetic satellite group | – | AUC(0-last) | 53300 ng·h/mL |
| COc1ccc([C@@H](O)c2cc(-c3ncnc4cc(N5CCOCC5)ccc34)c(F)cc2Cl)nn1 | – | locally advanced rectal cancer patients | 50 mg, with: capecitabine and radiotherapy | – | drug-related nausea incidence | 0% |
| O=c1c2ccccc2oc2ccccc12 | – | tricaprin-tricaprylin mixture | 75 °C, tricaprin fraction 0.56 | – | solubility | 0.104 mole fraction |
| COc1ccc2nc([S+]([O-])Cc3ncc(CO)c(OC)c3C)[nH]c2c1 (stereo not drawn) | – | human, dried plasma spots | 4 h | baseline: baseline | R/S enantiomer ratio | 9.93 |
| COc1ccc2c(c1)CN(C(=O)CCN1CCC(Cc3ccccc3)CC1)CC[S@@+]2[O-] | telemetry | conscious dog | intravenous, 4 mg/kg, 24 h | – | diastolic blood pressure | 75 ± 11 mmHg |
| NC1(C(=O)N[C@@H](CCO)c2ccc(Cl)cc2)CCN(c2nc[nH]c3nccc2-3)CC1 | – | metastatic CRPC patients | 320 mg b.i.d., grade 3 to 4, treatment-related, with: enzalutamide 160 mg daily | – | incidence of Amnesia | 0% |
| Cc1nc2ccc(OCc3ccc(C(F)(F)F)cc3)cc2[nH]1 | – | male Balb/c mice, kidney | oral, 10 mg/kg, 4 h | baseline: tissue over plasma | tissue/plasma ratio | 13.2 ± 1.4 |

| Structure (SMILES) | test | test system | setting | scale | measurement | result |
| --- | --- | --- | --- | --- | --- | --- |
| Cc1ccc(C(=O)N(CCCN)C(c2nc3snc(C)c3c(=O)n2Cc2ccccc2)C(C)C)cc1 (stereo not drawn) | – | human patients | intravenous, 13 mg/day | – | grade ≥3 hypokalemia patients | 33% |
| Cc1cc(C)c(CNC(=O)c2cc(Cl)c3c(c2C)O[C@@](C)([C@H]2CC[C@H](N(C)C)CC2)O3)c(=O)[nH]1 | – | human relapsed/refractory NHL | oral, 200 mg once daily, onset day 1 to 14 | – | febrile neutropenia grade ≥3 | 0% |
| Cc1cccc(Cn2cc(CO)c3cnccc32)c1 | – | F344 rat, male, serum | oral, 100 mg/kg/day, 2 days | – | ALT | 62 U/L and 79 U/L and 71 U/L |
| O=C(O)CNC(=O)c1ccccc1 | – | human plasma | median, both sexes | – | plasma concentration | 345000 nM |
| CNC(=O)c1ccc(-c2cnc3ncc(Cc4ccc5ncccc5c4)n3n2)cc1F | measured: Hypoalbuminemia, all grades | cancer patients | oral, dose not given, dose escalation, any causality | – | patients with adverse event | 24% |
| CC(C)c1nc(N(C)S(C)(=O)=O)nc(-c2ccc(F)cc2)c1/C=C/[C@@H](O)C[C@@H](O)CC(=O)O | measured: vascular disorders | healthy men | oral, dose not given, 8 days, treatment-emergent, crossover trial | – | subjects with adverse event | 0% |
| Oc1ccc(/C=C/c2cc(O)cc(O)c2)cc1 | – | rat, azoxymethane-injected, blood | in vivo, 100 mg/kg, at sacrifice | – | ALT level | 119 IU/L and 126 IU/L and 156 IU/L |
| CC(C)(Sc1ccncc1-c1ccc(C#N)c2ccccc12)C(=O)O | – | human, plasma | oral, 10 mg once daily, with: febuxostat 40 mg | – | AUC(0-24) | 216 ng·h/mL |
| O=C(O)c1cccc(O)c1 | – | human plasma | mean, both sexes | – | plasma concentration | 2430 nM |
| N#Cc1ccc2c(c1)[C@H]1CCCN(C(=O)c3ccc4[nH]cnc4c3)[C@H]1C2 | – | human | 160 mg, day 15 | – | minimum ACTH level | 1.9 pmol/L |
| O=C1NCCc2nc(OCc3cccc(F)c3)ccc21 | measured: loss of Escape | Sprague-Dawley rat male | oral, 100 mg/kg, 1 h | direction not given | Irwin test score | 0 |
| O=C(O)[C@H]1O[C@@H](Oc2ccccc2O)[C@H](O)[C@@H](O)[C@@H]1O | – | human plasma | median | – | plasma concentration | 150 nM |
| C=CC(=O)Nc1cc(Nc2nccc(-c3cn(C)c4ccccc34)n2)c(OC)cc1N(C)CCN(C)C | storage stability | human dried blood spots | 5 h, on ice, LLOQ level | – | recovery | 90.9% |
| CC(C)(C(=O)N1CCOc2c(C#N)cncc2C1)C(F)F | measured: Presyncope | human | oral, 15 mg twice daily, 14 days, multiple ascending dose | – | subjects with adverse event | 0% |
| CC(=O)O[C@@]12CO[C@@H]1C[C@H](O)[C@@]1(C)C(=O)[C@H](O)C3=C(C)[C@@H](OC(=O)[C@H](O)[C@@H](NC(=O)OC(C)(C)C)c4ccccc4)C[C@@](O)([C@@H](OC(=O)c4ccccc4)[C@H]21)C3(C)C | – | healthy BALB/c mouse | intravenous, 10 mg/kg every 3 days | baseline: saline | serum ALT and AST | increased |
| Cc1nc2cccc(OCC(C)(C)C(=O)NC(C)C)c2c(N)c1C(=O)O | – | male Swiss albino CD-1 mouse, bone marrow | oral, 500 mg/kg, 36 h | – | micronucleated NCE per 2000 PCE | 1.1 |
| O=C(O)c1cc(O)c(O)c(O)c1 | – | human plasma | mean, both sexes | – | plasma concentration | 19 nM |
| O=Cc1cc2c(cc1F)C(=O)N(C1CCC(=O)NC1=O)C2 (stereo not drawn) | – | cynomolgus monkey, male | oral, 0.3 mg/kg parent drug, 4 h | – | plasma concentration | 0.41 ± 0.26 ng/mL |
| CC(=O)O[C@H]1C[C@@]2(C)[C@@H](C[C@@H](O)[C@H]3[C@@]4(C)CC[C@@H](O)[C@@H](C)[C@@H]4CC[C@@]32C)/C1=C(\CCC=C(C)C)C(=O)O | starch gel membrane permeability | Gram-negative envelope surrogate | 200 µM, 30 min, pH 7.4 | – | amount permeated | 0.18 nmol |

Excerpt of the above:
| Structure (SMILES) | test | test system | setting | scale | measurement | result |
| --- | --- | --- | --- | --- | --- | --- |
| CCn1cc(C(=O)O)c(=O)c2cc(F)c(N3CCNCC3)cc21 | starch gel membrane permeability | Gram-negative envelope surrogate | 200 µM, 45 min, pH 7.4 | – | amount permeated | 2.81 nmol |
| C[C@@]1(c2cc(NC(=O)c3ccc(C#N)cn3)ccc2F)C=CSC(N)=N1 | – | elderly humans, both sexes, plasma | oral, 150 mg single dose | – | dose-normalised AUC(0-inf) | 96.8 ng·h/mL |
| NCC1CCN(c2nc(-c3ccncc3)nc3sc4c(c23)CCCC4)CC1 | optical coherence tomography | Long-Evans rats | intravitreal, 3 µM, 5 h | baseline: vehicle | retinal structure | no effect |
| CCc1cc2ncc(CN3CCN(c4ccc(C(=O)NC)nc4)CC3)cc2[nH]c1=O | – | male rat, blood | oral, 50 mg/kg/day, 4 weeks | baseline: vehicle control | Neutrophils count ratio | 0.56 |
